Results collected from several papers.
A part holds a random share of what one study measured. Values joined by “and” are separate records of one study, mostly repeats; a detail may differ.
Chain of UniProt P28335 (whole entry, looked up): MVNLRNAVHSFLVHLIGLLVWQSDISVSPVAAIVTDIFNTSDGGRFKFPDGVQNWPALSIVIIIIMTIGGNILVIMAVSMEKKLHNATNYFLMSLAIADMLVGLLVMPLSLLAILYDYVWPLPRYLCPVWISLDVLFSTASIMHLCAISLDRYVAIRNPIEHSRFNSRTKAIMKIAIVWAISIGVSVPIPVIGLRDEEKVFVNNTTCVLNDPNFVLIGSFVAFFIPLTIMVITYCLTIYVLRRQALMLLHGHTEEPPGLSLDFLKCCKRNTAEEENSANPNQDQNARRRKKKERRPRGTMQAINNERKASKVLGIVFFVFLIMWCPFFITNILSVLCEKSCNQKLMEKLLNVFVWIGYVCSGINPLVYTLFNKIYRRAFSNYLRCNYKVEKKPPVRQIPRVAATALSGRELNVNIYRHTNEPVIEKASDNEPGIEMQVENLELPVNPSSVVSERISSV
Chain of UniProt P20309 (whole entry, looked up): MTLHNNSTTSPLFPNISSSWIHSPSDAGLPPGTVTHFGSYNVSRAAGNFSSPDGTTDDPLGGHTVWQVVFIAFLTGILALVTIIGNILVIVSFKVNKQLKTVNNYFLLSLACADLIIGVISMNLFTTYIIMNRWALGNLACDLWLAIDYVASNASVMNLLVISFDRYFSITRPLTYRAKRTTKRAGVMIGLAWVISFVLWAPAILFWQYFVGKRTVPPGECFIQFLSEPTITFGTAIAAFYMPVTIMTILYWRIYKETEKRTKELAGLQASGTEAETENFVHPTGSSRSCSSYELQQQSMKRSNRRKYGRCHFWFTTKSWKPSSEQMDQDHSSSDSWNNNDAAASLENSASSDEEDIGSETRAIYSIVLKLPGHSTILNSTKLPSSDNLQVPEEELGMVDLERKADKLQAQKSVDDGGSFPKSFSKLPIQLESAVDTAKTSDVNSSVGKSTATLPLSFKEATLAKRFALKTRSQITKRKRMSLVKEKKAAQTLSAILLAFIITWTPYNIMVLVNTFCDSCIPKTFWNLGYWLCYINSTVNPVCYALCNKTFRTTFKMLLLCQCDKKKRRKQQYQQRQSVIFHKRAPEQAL

Study 1
Organism: Sarcocystis neurona
Effect on: parasite growth
Tested at: 10 µM
Time: 96 h
Notes: first screen
Relative to: untreated
SMILES	log2 fold change
C[C@]12Cc3c[nH]nc3C[C@@H]1CC[C@@H]1[C@@H]2CC[C@@]2(C)[C@H]1CC[C@]2(C)O	-0.25
Cc1ccc(-c2nc3ccc(C)cn3c2CC(=O)N(C)C)cc1	0.85
CC(C)CC(N(C)C)C1(c2ccc(Cl)cc2)CCC1 (centres unmarked)	-0.00194
CC(C)/N=c1\cc2n(-c3ccc(Cl)cc3)c3ccccc3nc-2cc1Nc1ccc(Cl)cc1	-7.42
CCOC(=O)C1(c2ccccc2)CCN(CCC(C#N)(c2ccccc2)c2ccccc2)CC1	-0.33

Study 2
Target: Leukocyte tyrosine kinase receptor (LTK, Homo sapiens, UniProt P29376)
Chain of UniProt P29376 (whole entry, looked up): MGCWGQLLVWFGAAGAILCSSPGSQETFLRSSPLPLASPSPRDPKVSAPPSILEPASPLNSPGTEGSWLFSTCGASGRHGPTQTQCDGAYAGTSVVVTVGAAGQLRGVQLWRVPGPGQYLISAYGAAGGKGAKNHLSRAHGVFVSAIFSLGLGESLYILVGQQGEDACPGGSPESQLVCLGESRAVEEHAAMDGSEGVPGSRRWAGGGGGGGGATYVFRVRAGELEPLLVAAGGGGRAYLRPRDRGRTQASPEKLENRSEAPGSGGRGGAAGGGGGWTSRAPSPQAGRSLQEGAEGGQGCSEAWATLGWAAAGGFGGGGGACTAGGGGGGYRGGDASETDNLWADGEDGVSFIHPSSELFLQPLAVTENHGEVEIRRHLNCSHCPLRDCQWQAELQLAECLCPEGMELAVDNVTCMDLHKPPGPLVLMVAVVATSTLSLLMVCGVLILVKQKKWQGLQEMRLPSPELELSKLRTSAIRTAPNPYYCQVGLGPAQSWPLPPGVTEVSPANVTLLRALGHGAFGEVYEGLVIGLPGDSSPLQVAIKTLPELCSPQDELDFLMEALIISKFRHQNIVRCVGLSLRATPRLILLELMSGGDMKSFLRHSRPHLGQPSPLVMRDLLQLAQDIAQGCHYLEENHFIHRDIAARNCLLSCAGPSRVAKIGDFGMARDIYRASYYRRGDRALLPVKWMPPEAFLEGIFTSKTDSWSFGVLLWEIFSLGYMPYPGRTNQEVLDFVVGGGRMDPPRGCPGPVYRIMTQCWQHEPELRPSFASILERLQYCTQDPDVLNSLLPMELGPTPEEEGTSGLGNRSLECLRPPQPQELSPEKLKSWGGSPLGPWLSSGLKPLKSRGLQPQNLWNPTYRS
Effect on: enzyme activity
Action: inhibitor
Method: radiometric
Tested at: 0.5 µM
SMILES	remaining activity
O=S(=O)(c1cccc2cnccc12)N1CCCNCC1	95.2%
O=C1Nc2ccc3ncsc3c2/C1=C/c1cnc[nH]1	83%
Nc1ncnc2n[nH]c(Nc3ccc(F)cc3)c12	92.5%
COc1ccc(C(=O)Nc2sc3c(c2C(N)=O)CCCC3)cc1OC	40.5%
O=c1c2ccccc2[nH]c(=S)n1CCN1CCC(=C(c2ccc(F)cc2)c2ccc(F)cc2)CC1	97.9%
Cc1ccc(NC(=O)c2ccc(CN3CCN(C)CC3)cc2)cc1Nc1nc(-c2cccnc2)cs1	102%
COc1ccc2c(c1)/C(=C/c1cnc[nH]1)C(=O)N2	93.6%
Nc1[nH]nc2nc3ccccc3nc12	89.4%
Cc1ccc(Nc2nccc(N(C)c3ccc4c(C)n(C)nc4c3)n2)cc1S(N)(=O)=O	80.2%
O=C1NC(=O)c2cc(Nc3ccc(F)cc3)c(Nc3ccc(F)cc3)cc21	99.7%
O=C(CCCc1ccc(-c2ccccc2F)cc1)Nc1ccc(O)cc1	106%
NCCNc1ncc(C(N)=O)c(Nc2cccc(C(F)(F)F)c2)n1	84.8%
Oc1ccc(-c2nc(-c3ccncc3)c(-c3ccc(F)cc3)[nH]2)cc1	97.1%
COc1cc2ncnc(Nc3ccc(F)c(Cl)c3)c2cc1OCCCN1CCOCC1	90.4%
C#Cc1cccc(Nc2ncnc3cc(OCCOC)c(OCCOC)cc23)c1	66.3%
O=C1NC(=O)C(c2cn(CCCO)c3ncccc23)=C1c1cnccn1	90.9%
N#CCCc1ccc2c(c1)-c1[nH]c3ccc([N+](=O)[O-])cc3c1CC(=O)N2	80%
COc1cc2nccc(Oc3ccc(NC(=S)NC(=O)c4ccccc4C)cc3)c2cc1OC	86.1%

Study 3
Cell line: mouse MPNST tumor cells
Method: high-content nuclear imaging
Refers to: cell number
Tested at: 10 µM
Time: 12 h
Notes: mean of 2 replicates
Relative to: plate mean
Reading: higher = more cells
Structure (SMILES)	nuclei count
CC(=O)OCC(=O)[C@H]1CC[C@H]2[C@@H]3CC[C@H]4C[C@H](O)CC[C@]4(C)[C@H]3C(=O)C[C@]12C	2.44 z-score
O=C1NC(=O)c2c1c1c3ccccc3[nH]c1c1[nH]c3ccccc3c21	6.49 z-score
C[C@]12COC(=O)C[C@@H]1CC[C@@H]1[C@@H]2CC[C@@]2(C)[C@H]1CC[C@]2(C)O	4.63 z-score
O=[N+]([O-])O[C@H]1CO[C@H]2[C@@H]1OC[C@H]2O[N+](=O)[O-]	0.174 z-score and 1.35 z-score

Study 4
Target: Calcium/calmodulin-dependent protein kinase type II subunit alpha (CAMK2A, Homo sapiens, UniProt Q9UQM7)
Chain of UniProt Q9UQM7 (whole entry, looked up): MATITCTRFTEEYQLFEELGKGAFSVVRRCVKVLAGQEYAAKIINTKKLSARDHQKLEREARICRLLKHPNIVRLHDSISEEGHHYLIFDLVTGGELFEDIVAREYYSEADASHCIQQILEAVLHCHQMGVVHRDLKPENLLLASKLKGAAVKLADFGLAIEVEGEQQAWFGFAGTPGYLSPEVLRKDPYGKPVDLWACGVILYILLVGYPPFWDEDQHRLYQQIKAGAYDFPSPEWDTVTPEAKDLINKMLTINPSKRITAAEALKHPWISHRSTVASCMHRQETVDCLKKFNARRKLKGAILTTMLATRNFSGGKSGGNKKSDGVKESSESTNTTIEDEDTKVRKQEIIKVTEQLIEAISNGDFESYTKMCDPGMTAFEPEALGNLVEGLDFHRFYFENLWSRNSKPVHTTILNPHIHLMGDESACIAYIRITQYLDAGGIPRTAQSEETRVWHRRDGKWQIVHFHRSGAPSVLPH
Effect on: enzyme activity
Action: inhibitor
Tested at: 10 µM
Structure (SMILES)	inhibition
O=C(O)CNC(=O)C1C(=O)N(C2CCCCC2)C(=O)N(C2CCCCC2)C1=O	-7%
C=C[C@H]1[C@H](O[C@@H]2O[C@H](CO)[C@@H](O)[C@H](O)[C@H]2O)OC=C2C(=O)OCC[C@H]21	-9%
c1cc2c(cc1[C@H]1OC[C@H]3[C@@H]1CO[C@H]3c1ccc3c(c1)OCO3)OCO2	0%
C1=C2CCCN[C@H]2[C@@H]2C[C@H]1[C@H]1CCCCN1C2	8%
COC[C@@]12CC[C@H](OC)[C@]34C([C@H]([C@H](OC)[C@H]13)[C@]1(O)[C@H]3[C@@H](OC(=O)c5ccccc5)[C@](O)(C[C@H]34)[C@@H](OC)[C@@H]1O)N(C)C2	-16%

Study 5
Cell line: HaCaT
Tested at: 100 µM
Time: 60 h
Structure (SMILES)	viability [%]
COc1cc2c(cc1OC)C13CCN4CC5=CCOC6CC(=O)N2C1C6C5CC43 (centres unmarked)	110
NC(=O)CN1CC(O)CC1=O (centres unmarked)	160
CCC1(c2cccc(O)c2)CCCCN(C)C1 (centres unmarked)	149
CN[C@H]1C[C@@H](N)[C@H](O)[C@@H](O[C@@H]2O[C@H](CO)[C@H](O)[C@@H]3OC4(O[C@H]23)O[C@H]([C@@H](N)CO)[C@H](O)[C@H](O)[C@H]4O)[C@@H]1O (some centres unmarked)	74.5

Single results of other studies
Tested at: 10 µM
Structure (SMILES)	target	effect on	method	inhibition
N#CN1CC[C@H](C(=O)Nc2nc3c(s2)CN(C(=O)CN=[N+]=[N-])CC3)C1	CHRM3 (Homo sapiens, UniProt P20309)	ligand displacement		-1.04%
Cc1nc(N2CC[C@@H](O)C2)ncc1-c1cc(C(F)(F)F)cc2[nH]ncc12	HTR2C (Homo sapiens, UniProt P28335)	binding	radioligand binding	-0.722%

Some of these lines once more (study 4):
Structure (SMILES)	inhibition
O=C(O)CNC(=O)C1C(=O)N(C2CCCCC2)C(=O)N(C2CCCCC2)C1=O	-7%
C=C[C@H]1[C@H](O[C@@H]2O[C@H](CO)[C@@H](O)[C@H](O)[C@H]2O)OC=C2C(=O)OCC[C@H]21	-9%
